Experimental data gathered from unrelated publications.
Parts stem from different laboratories: compare values within a part only.
Sequence of UniProt P19784 (whole entry, looked up): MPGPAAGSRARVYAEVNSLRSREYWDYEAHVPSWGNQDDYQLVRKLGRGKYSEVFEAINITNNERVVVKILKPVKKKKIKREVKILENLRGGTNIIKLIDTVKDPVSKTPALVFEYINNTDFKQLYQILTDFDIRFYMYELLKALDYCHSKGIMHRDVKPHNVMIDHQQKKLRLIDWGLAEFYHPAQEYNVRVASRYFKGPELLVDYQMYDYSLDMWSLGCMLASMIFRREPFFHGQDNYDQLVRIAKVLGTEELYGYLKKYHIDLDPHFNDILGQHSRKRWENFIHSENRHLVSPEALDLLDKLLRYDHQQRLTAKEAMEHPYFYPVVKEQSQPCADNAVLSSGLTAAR
Sequence of UniProt Q56UN5 (whole entry, looked up): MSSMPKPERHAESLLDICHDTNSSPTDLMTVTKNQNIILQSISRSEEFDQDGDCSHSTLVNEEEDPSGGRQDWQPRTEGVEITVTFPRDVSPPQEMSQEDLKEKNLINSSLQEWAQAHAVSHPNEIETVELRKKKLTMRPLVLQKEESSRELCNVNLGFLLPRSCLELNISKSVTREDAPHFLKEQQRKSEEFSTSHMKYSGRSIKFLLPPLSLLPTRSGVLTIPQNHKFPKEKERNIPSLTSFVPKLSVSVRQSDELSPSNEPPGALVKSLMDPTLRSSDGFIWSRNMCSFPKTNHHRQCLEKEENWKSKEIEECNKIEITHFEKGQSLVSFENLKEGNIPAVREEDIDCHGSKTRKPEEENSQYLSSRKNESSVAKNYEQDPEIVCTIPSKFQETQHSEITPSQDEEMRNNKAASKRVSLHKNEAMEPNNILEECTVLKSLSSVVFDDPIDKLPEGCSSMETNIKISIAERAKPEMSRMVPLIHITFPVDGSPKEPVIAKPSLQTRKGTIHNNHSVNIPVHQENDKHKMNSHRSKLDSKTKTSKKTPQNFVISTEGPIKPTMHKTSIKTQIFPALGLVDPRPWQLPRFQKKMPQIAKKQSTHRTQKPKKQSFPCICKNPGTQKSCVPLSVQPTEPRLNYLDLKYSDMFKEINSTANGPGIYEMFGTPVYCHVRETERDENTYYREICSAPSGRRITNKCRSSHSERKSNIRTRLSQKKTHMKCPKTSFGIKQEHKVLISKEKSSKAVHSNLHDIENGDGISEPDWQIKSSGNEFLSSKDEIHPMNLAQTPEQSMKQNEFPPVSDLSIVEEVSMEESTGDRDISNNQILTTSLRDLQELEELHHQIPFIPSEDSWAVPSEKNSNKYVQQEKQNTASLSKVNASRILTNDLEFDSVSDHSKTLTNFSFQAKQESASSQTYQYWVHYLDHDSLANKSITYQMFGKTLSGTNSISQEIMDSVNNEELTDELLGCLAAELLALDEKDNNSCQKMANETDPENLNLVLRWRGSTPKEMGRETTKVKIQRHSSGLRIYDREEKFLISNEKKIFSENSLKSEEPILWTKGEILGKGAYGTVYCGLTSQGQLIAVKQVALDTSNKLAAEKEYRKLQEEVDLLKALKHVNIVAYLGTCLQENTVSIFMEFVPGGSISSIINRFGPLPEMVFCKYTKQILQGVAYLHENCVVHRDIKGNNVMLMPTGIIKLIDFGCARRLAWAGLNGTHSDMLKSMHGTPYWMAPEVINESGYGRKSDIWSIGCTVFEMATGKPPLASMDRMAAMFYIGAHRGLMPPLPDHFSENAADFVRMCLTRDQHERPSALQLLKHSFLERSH
Sequence of UniProt Q15831 (whole entry, looked up): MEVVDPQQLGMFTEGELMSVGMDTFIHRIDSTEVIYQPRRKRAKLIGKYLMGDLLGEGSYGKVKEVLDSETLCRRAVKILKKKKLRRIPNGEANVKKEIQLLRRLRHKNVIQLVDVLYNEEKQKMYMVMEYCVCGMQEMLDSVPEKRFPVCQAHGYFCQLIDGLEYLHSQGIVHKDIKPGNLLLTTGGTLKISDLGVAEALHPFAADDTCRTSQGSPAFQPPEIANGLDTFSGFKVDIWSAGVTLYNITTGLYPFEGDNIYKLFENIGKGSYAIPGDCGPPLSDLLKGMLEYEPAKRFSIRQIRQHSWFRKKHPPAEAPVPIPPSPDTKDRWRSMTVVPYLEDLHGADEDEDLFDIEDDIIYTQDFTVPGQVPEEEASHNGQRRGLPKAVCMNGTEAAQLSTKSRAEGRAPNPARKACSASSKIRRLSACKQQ
Sequence of UniProt Q96L34 (whole entry, looked up): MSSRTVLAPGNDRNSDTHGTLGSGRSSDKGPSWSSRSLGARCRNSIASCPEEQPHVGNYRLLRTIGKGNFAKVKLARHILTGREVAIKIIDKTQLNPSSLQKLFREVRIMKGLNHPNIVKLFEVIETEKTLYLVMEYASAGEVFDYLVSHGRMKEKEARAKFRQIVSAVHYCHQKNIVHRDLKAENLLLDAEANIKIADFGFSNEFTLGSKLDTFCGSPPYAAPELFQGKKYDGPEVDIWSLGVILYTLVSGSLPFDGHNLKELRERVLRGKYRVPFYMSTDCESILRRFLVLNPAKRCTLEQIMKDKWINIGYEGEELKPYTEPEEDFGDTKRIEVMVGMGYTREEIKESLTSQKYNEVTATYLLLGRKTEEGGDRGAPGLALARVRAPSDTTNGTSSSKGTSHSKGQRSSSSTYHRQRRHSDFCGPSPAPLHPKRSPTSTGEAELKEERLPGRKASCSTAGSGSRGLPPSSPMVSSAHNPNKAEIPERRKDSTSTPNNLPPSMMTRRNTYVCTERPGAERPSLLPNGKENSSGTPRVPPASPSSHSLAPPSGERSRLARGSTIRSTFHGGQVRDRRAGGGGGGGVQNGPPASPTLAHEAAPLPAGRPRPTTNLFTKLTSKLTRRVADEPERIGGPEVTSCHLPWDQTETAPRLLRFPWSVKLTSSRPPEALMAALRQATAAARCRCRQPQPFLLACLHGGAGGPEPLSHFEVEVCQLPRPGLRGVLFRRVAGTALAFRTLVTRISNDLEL
Sequence of UniProt P33981 (whole entry, looked up): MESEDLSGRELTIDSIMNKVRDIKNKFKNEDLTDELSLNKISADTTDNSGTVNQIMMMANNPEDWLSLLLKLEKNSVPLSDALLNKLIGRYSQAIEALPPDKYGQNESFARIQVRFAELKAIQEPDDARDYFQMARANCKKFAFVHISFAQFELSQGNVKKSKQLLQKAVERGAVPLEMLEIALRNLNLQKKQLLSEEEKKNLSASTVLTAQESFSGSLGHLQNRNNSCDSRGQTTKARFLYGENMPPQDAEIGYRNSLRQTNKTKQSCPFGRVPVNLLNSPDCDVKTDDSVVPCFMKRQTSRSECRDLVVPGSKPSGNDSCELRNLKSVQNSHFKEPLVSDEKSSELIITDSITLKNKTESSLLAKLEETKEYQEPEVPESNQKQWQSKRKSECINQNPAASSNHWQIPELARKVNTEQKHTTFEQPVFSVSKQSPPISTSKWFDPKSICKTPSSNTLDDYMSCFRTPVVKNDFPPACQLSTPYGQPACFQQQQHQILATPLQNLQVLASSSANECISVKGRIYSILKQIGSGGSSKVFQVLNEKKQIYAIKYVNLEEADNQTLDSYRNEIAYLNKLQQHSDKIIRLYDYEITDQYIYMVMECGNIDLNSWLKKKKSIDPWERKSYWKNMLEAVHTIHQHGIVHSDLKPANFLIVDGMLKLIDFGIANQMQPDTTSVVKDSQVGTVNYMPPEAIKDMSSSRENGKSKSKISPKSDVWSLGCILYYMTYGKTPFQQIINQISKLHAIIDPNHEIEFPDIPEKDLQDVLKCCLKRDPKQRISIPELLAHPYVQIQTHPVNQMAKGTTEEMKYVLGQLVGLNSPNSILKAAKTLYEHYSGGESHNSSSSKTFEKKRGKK

Sample 1
Target: PABPC1L2, full length, GST fusion (mouse, UniProt A0ABA7IW68)
Method: RNAcompete
Form: RNA
Matrix: in vitro
Tested at: 20 nM
Notes: 7-mer, probes averaged, single round
Reference: mean of 7-mers
Reading: higher = stronger binding
Target sequence (chain): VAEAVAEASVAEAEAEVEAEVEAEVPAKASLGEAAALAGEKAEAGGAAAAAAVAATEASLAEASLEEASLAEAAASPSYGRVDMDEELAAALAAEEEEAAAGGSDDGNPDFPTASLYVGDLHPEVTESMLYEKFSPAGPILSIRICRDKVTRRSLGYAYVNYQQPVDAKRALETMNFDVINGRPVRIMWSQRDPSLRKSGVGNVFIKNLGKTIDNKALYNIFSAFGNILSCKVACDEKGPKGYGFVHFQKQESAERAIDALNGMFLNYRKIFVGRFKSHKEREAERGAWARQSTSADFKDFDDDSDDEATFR
Strand	7-mer Z-score
UCUGCGC	-0.333
GAACUGU	-0.195
AACCCAG	0.0189
CGCCCGU	-0.45
UUAUCAU	-0.173
AAAACUC	2.56
UUUUGAA	0.0279
CACUUGA	-0.0736

Sample 2
Target: Casein kinase I isoform gamma-2 (CSNK1G2, Homo sapiens, UniProt P78368)
Sequence of UniProt P78368 (whole entry, looked up): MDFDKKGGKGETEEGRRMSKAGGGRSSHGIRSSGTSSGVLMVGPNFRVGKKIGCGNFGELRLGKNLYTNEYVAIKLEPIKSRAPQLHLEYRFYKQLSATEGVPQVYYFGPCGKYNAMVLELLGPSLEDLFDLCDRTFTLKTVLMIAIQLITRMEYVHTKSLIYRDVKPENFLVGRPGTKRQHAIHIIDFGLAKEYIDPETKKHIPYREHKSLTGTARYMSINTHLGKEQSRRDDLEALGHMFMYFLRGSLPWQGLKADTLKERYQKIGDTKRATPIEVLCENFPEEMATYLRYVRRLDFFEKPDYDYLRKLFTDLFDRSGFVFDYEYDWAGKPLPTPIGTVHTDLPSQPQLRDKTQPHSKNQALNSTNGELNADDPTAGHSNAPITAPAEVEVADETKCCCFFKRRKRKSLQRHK
Read-out: enzyme activity
Mode: inhibitor
Tested at: 0.5 µM
Reference: control
Compound	remaining activity
Cn1sc(=O)n(Cc2ccccc2)c1=O	95%
CO[C@H]1C[C@@H]2CC[C@@H](C)[C@@](O)(O2)C(=O)C(=O)N2CCCC[C@H]2C(=O)O[C@H]([C@H](C)C[C@@H]2CC[C@@H](O)[C@H](OC)C2)CC(=O)[C@H](C)/C=C(\C)[C@@H](O)[C@@H](OC)C(=O)[C@H](C)C[C@H](C)/C=C/C=C/C=C/1C	94.8%
O=c1c2ccccc2[nH]c(=S)n1CCN1CCC(=C(c2ccc(F)cc2)c2ccc(F)cc2)CC1	98.6%
O=C1NC(=O)C(c2cn(CCCn3ccnc3)c3ccccc23)=C1Nc1ccccc1	95.4%
CNC(=O)c1cc(Oc2ccc(NC(=O)Nc3ccc(Cl)c(C(F)(F)F)c3)cc2)ccn1	88.9%
CN(C)c1ccc(C=C2C(=O)Nc3ccccc32)cc1	96.7%
O=C(O)c1ccc2c3c1cccc3c(=O)n1c3ccccc3nc21	93.5%
O=S(=O)(c1cccc2cnccc12)N1CCCNCC1	93.7%
COc1ccc(CNC(=O)Nc2ncc([N+](=O)[O-])s2)cc1	100%
COc1ccc(OC)c2c(=S)c3ccccc3[nH]c12	103%
OCC(O)CCON=C1C(c2c(O)[nH]c3ccccc23)=Nc2ccccc21 (stereo not shown)	85.2%
O=C(Nc1cccc(Nc2cc(Nc3cccc(C(F)(F)F)c3)ncn2)c1)C1CC1	99.1%
Nc1[nH]nc2nc3ccccc3nc12	93.8%
COc1ccc(C(=O)Nc2sc3c(c2C(N)=O)CCCC3)cc1OC	98.7%
Cn1c2ccccc2c2c3c(c4c5ccccc5n(CCC#N)c4c21)CNC3=O	105%

Sample 3
SMILES: CN(C)CC#Cc1ccc(OCCCc2sc(N3CCc4cccc(C(=O)Nc5nc6ccccc6s5)c4C3)nc2C(=O)O)c(F)c1
Read-out: cell-free assay
Method: competition with immobilised ligand
Tested at: 1 µM
target	remaining binding
TTK (Homo sapiens, UniProt P33981)	92%
HCK (Homo sapiens, UniProt P08631)	100%
STK11 (Homo sapiens, UniProt Q15831)	100%
CSNK2A2 (Homo sapiens, UniProt P19784)	100%
MAP3K19 (Homo sapiens, UniProt Q56UN5)	95%
MARK4 (Homo sapiens, UniProt Q96L34)	76%

Sample 4
Target: Ras GTPase-activating protein-binding protein 1, full length (G3BP1, Homo sapiens, UniProt Q13283)
Sequence of UniProt Q13283 (whole entry, looked up): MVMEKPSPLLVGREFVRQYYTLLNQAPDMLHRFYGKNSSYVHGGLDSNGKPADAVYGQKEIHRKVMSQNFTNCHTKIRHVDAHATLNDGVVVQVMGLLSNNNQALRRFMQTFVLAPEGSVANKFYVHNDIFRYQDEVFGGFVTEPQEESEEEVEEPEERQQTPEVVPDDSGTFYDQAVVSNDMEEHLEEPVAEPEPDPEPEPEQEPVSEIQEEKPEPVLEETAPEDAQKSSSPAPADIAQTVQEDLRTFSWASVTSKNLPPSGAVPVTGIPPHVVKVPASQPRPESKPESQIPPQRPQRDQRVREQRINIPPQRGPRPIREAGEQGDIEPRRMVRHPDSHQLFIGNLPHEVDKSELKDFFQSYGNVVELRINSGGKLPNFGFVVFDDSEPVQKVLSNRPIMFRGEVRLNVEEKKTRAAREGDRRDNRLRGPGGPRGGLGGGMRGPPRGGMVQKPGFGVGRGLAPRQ
Method: RNA Bind-n-Seq
Form: RNA
Matrix: in vitro
Tested at: 200 nM
Notes: whole 134-nt RNA, ends assumed
With: 150 mM LiCl
Reference: input library
Reading: higher = stronger binding
Library: 7-deaza-guanosine replaces G
Constant ends, left off below: GGGAGUUCUACAGUCCGACGAUC … UGGAAUUCUCGGGUGUCAAGG
Strand	log2 enrichment
UUGCGCCUGUCCCGGGUGAAGUGUGUCGGCCUCUCCGCACGCACCACGGAGACCAGCAGUGCAGUCAUGUGCCUGGACCUUGCAGCUUCC	0.0303
UGGUGUUAUUUUUGCACUACAAGGGCUCUGAAGACUGCCAGGCUUGAAAUGAAGAACGAUGUCACCUGCCUAUCACAGCCAGGUGACAAU	-3.64
UCCUGUGCUACACAUCGUAUGUACCGAAUCGGGGAAAAAAGGGAAAAAAGGAAAAAAGGAAAGUAUUAUGUUACGCCGUUCGGAUCUGCA	0.0989
UGGGAGGUGGAUUUUGUUUAUUUUUUUAGCUCAUUUCCAGGGGUGGGAAUUUUUUUUUAAUAUGUGUCAUGAAUAAAGUUGUUAUUGAAA	-0.238
GAGGAGACUCUGCGCAGAGCACUUUGGGUCCGGAGGGCGAGACUCCGGCGGAAGCAUUCCCGGGCGGGUGACCCAGCACGGUCCCUCUUG	-0.908
CACAGACAACACGCACCCACACAGGCACAGAGGGAAGGGGUUGGGAUGGGGACAGGGUGCACAGCAGGGCGGGGUAGGACCCCAGCCCCU	1
UCCUGUGCUACACAUCGUAUGUACCGAAUCGGAAAAAAGGGAAAAAAGGGGAAAAAAGGGAAAGUAUUAUGUUACGCCGUUCGGAUCUGC	-0.511
UCAAGUCCUGUGCUACACAUCGUAUGUACCGAAUCGGGCCGGCCGGGGCCGGGGAAAGUAUUAUGUUACGCCGUUCGGAUCUGCACUUCC	0.0303

Excerpt of the above (sample 1):
Strand	7-mer Z-score
CGCCCGU	-0.45
AAAACUC	2.56
GAACUGU	-0.195
